Measurements gathered from unrelated publications.
Numbered parts are unrelated; each lists some results of a single study.

Series 1
Target: Sal-like protein 4, full length isoform B (SALL4, Homo sapiens, UniProt Q9UJQ4-2, residues 1-616)
Technique: universal PBM
Form: double-stranded DNA, one strand shown
Medium: in vitro
Concentration: not given
Notes: 8-mer, flanks averaged, mean of replicates
Direction: higher = stronger binding
Construct (chain): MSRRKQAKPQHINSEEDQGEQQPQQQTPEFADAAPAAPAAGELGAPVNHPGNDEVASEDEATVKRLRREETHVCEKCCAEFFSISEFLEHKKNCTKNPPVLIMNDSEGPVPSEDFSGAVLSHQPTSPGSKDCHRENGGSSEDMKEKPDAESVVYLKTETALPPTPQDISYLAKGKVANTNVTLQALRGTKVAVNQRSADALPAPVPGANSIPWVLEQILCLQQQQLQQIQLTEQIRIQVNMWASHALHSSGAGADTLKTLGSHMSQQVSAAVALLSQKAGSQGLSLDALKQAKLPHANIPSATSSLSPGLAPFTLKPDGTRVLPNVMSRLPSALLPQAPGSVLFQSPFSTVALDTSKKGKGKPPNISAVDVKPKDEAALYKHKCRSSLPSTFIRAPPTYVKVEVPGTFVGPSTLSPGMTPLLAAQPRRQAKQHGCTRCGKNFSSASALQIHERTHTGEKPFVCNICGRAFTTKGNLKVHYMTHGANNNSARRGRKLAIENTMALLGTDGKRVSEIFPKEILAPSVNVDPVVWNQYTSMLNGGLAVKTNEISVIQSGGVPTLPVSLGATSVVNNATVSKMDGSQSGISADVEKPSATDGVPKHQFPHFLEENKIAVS
For `AGTGTCTA`, the E-score was 0.103.
With `CTTATAAG` the E-score was 0.244.
`AGAAGTCG` has an E-score of -0.139.
The E-score of `AAGATATT` is reported as 0.265.
`CCAGATCG` has an E-score of -0.208.
The E-score of `GCGGGGTA` is reported as -0.102.
The E-score of `GAACGCGA` is reported as -0.101.
`ATCCAGGA` has an E-score of -0.0704.
For `ACTATCCC`, the E-score was -0.0886.
`CTCCGCGC` gave an E-score of -0.288.
`AGTCGAAC` gave an E-score of -0.134.
`TAGTCGGA` has an E-score of -0.117.
The E-score of `CCCAAGCG` is reported as -0.185.
With `ACGGAGAC` the E-score was -0.0462.
The E-score of `ATAAGATA` is reported as 0.301.
For `CAAACGTA`, the E-score was 0.192.
With `ATATAGGC` the E-score was 0.261.
With `CGTGCGAG` the E-score was -0.251.
`ATGTAGTC` gave an E-score of 0.193.
For `GATGCCTA`, the E-score was 0.0778.
With `CCCAATAC` the E-score was 0.116.
`CTCAAATA` has an E-score of 0.23.
`GAAGTACC` has an E-score of -0.154.
With `CTAGTCAC` the E-score was 0.067.
`CACCTGAA` gave an E-score of 0.11.

Series 2
Target: Ras GTPase-activating protein-binding protein 1, RRM domain (G3BP1, Homo sapiens, UniProt Q13283)
UniProt Q13283, sequence (whole entry, looked up): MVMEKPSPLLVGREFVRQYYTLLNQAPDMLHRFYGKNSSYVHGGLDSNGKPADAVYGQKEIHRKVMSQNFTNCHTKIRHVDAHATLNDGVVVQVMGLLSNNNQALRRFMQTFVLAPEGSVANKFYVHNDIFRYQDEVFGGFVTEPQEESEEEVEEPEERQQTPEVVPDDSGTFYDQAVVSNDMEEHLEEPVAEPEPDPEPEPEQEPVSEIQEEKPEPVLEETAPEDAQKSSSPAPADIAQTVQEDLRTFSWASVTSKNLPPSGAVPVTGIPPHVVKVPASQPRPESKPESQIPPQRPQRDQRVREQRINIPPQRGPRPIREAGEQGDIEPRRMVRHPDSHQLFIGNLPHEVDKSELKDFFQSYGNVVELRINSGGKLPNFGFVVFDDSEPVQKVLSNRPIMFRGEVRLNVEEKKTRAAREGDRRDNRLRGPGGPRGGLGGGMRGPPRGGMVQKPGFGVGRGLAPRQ
Technique: RNA Bind-n-Seq
Form: RNA
Medium: in vitro
Concentration: 1 µM
Notes: whole 134-nt RNA, ends assumed
With: 150 mM KCl
Reference: input library
Direction: higher = stronger binding
With `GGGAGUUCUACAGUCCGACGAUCAAGUCCUGUGCUACACAUCGUAUGUACCGAAUCGGGGUUUGGGGUUUGGGUUUGGGAAAGUAUUAUGUUACGCCGUUCGGAUCUGCACUUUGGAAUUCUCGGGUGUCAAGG` the log2 enrichment was 0.37.
`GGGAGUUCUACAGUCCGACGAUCGCAGGAAGUAAAAACAAAUGGAAAUGCUUCGGAUAGUGGCAGGGGUAAAGGUUGCUAAGGAAAGGGUGGGAUGGGAGUGGGUAAAGAGUUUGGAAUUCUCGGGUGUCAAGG` gave a log2 enrichment of 1.17.
`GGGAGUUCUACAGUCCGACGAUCAAGUCCUGUGCUACACAUCGUAUGUACCGAAUCGGGCCCCGGGCCCCGGCCCCGGGAAAGUAUUAUGUUACGCCGUUCGGAUCUGCACUUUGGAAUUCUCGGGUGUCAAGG` gave a log2 enrichment of -1.04.
With `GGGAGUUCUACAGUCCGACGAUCCUGUGCUACACAUCGUAUGUACCGAAUCGGGGCCCCCCGGGGCCCCCCGGGCCCCCCGGGGAAAGUAUUAUGUUACGCCGUUCGGAUCUGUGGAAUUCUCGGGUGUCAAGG` the log2 enrichment was -0.766.
`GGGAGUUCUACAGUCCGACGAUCCGGGAGGUGGAUUUUGUUUAUUUUUUUAGCUCAUUUCCAGGGGUGGGAAUUUUUUUUUAAUAUGUGUCAUGAAUAAAGUUGUUUUUGAAAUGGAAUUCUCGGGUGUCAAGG` gave a log2 enrichment of 1.67.
`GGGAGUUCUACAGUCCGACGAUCCAAGUCCUGUGCUACACAUCGUAUGUACCGAAUCGGGAAAAAAAGGGAGGGAGGGAAAGUAUUAUGUUACGCCGUUCGGAUCUGCACUUCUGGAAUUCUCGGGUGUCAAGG` gave a log2 enrichment of 0.817.
The log2 enrichment of `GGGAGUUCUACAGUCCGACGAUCUCCUGUGCUACACAUCGUAUGUACCGAAUCGGUUUUUUUGGGUUUUUUUGGUUUUUUUGGAAAGUAUUAUGUUACGCCGUUCGGAUCUGCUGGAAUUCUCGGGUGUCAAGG` is reported as -0.103.
`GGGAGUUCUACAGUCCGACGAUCCUCAAGUCCUGUGCUACACAUCGUAUGUACCGAAUCGGCCCGGGCCCGGCCCGGAAAGUAUUAUGUUACGCCGUUCGGAUCUGCACUUCCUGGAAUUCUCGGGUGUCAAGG` gave a log2 enrichment of -0.668.
The log2 enrichment of `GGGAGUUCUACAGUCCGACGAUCUAACUUUAGAGGAGGAUCUGAUGGAUAUGGCAGUGGACGUGGAUUUGGGGAUGGCUAUAAUGGGAAUGGAGGAGGACCUGGAGGUGGCAAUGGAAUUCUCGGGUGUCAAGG` is reported as -0.283.
With `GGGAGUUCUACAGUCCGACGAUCCACAGACAACACGCACCCACACAGACACAGAGGGAAGGGGUUGGGAUGGGGACAGGGUGCACAGCAGGGCGGGAAAGGACCCCAGCCCCUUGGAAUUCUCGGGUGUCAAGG` the log2 enrichment was -0.178.

Series 3
Target: RNA binding protein fox-1 homolog 2, RRM domain, GST-SBP tag (RBFOX2, Homo sapiens, UniProt O43251-10, residues 100-194)
Technique: RNA Bind-n-Seq
Form: RNA
Medium: in vitro
Concentration: 365 nM
Notes: natural RNA segment, single round, ends assumed
Reference: no-protein control
Direction: higher = stronger binding
Construct (chain): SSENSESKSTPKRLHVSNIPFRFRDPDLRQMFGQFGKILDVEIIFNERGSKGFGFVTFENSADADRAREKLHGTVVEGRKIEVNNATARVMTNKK
`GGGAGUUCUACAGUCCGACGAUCGAGGGCUGGACAUUUGUGGCAGUGCUGAAGGGGGCAUUGCCGGCGAGUAAAGUAUUAUGUUUCUUCUUGUCACCCCAGUUCCCUUGGUGGCAACCCCAGACCCAACCCAUUGGAAUUCUCGGGUGCCAA`: “RBNS enrichment (R)” 0.34.
`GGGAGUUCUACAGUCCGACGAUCUAAUGUAUUGUUGGUAAUUAUUUUGGUACUUUUAUGAUGUAUAUUUAUUAAACAGAUUUUUACAAAUAGUUAUCCUGAUCAUUUUCUUCAGGCUGCCGUGGGCCUCCGGUUGGAAUUCUCGGGUGCCAA` — result for “RBNS enrichment (R)”: 0.361.
Under “RBNS enrichment (R)”, `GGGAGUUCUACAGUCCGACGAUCUGUGUCCAAUCGGAGACAAAAGCAGUUUCUCUCCAACUCCCUCUGGGAAGGUGACCUGGCCAGAGCCAAGAAACACUUUCAGAAAAACAAAUGUGAAGGGGAGAGACAGGUGGAAUUCUCGGGUGCCAA` is recorded as 0.2.
`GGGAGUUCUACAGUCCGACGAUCUCGCCACAGCCUACAUAGUGUCUUCCACCUAAUAGAACUUCGAGCCAGAAAGGGGCAUGAGGGCUCUUGCGAGACUGAAGUGCUAUCUUCUCUGGACUAGAGAGAAGAGGUGGAAUUCUCGGGUGCCAA`: “RBNS enrichment (R)” 0.569.
`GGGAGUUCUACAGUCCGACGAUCGUAGCAUGAUUUUCCUUGGGAUGCAAAUCUUAAAACAGUCCUUUAAUAUGAACCAACAAUCUGGAGCACACCGAAGGGCAAUCUAAAUUGUGGCUUGAAGGACUGCACUAUGGAAUUCUCGGGUGCCAA`: “RBNS enrichment (R)” 1.26.
`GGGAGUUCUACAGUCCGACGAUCCCCAGGCUCAAGUAAUCCUCCCAUCUUAGUGCCCCAAGUAGCUGGGACUACAGGGGUGCACUACCACACCGGGUUGAAUUUUUUUUUAAUUUUAGUAGAGAUGAAGUGUCUGGAAUUCUCGGGUGCCAA`: “RBNS enrichment (R)” 0.656.
For `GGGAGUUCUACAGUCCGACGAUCCAGCUGACUUCCAGUACUGUGAAUCCGCCCCUGUCAGAAGUGGCUGACCCUGUUUCUCCUCAGAUGACAACCACCACUCCUGAGGUCUUUGUCCUCUCCUUGUCCCUUCAUGGAAUUCUCGGGUGCCAA`, “RBNS enrichment (R)” read 0.357.
`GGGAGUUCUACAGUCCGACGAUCCCCAGCUGCACACACACACCAUGCUCUCGCCCUGCUGUAACCUCUGUCUUGGCAGGGCUGUCCCCUCUUGCUUCUCCUUGCAUGAGCUGGAGGGCCUGUGUGAGUUACGCUGGAAUUCUCGGGUGCCAA` — result for “RBNS enrichment (R)”: 0.706.
`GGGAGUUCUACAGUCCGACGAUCGCUCAGGAGUUUGGGAGAGGGGCAGGAGAAGGAUAAGAAAGCCUGGGUUUUAGGCUUGCCUGGGAAGCUACAGUCAAGGUGCAUUCUGGGAGCUACUCAUCCCCAGCAGUUGGAAUUCUCGGGUGCCAA`: “RBNS enrichment (R)” 1.13.
`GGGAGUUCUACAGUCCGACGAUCCCAAUCAAACCUACUUUUUCCAUACUCUGUGCAUAUUUUUUGUGAAGUUAUACACAUUGAAGACCCUAAAAAUCCCAGUCCAUCAUUCAGCUUACCUCUGCGAACUUCUAUGGAAUUCUCGGGUGCCAA`: “RBNS enrichment (R)” 1.17.
`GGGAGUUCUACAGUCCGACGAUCCACAAUGAAAGAAUGCAAUCUUCCCACCAGCUACAUGACUACUUGUUCUCUGUGAAGUGUACUCUUGGGAAGUAUUAACUUUAUAUACAGUUCAGGGGAUCUCAGCUAACUGGAAUUCUCGGGUGCCAA` — result for “RBNS enrichment (R)”: 0.448.
Under “RBNS enrichment (R)”, `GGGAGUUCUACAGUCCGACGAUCAUAGCCUAAGUGUGUAACAGGCUAUAUACAUAUCAUCAGGGUCUGUGUAAGUAUACUCUGUGAUGUUCAUACAGUGAUGAAAUCACCCAAAGACACAUUUCUCAGAACGUUGGAAUUCUCGGGUGCCAA` is recorded as 0.579.

Series 4
Target: Histone acetyltransferase KAT6A, both winged helices, GST fusion (KAT6A, Homo sapiens, UniProt Q92794, residues 1-181)
Technique: protein binding microarray
Form: double-stranded DNA, one strand shown
Medium: in vitro
Concentration: not given
Notes: 8-mer, flanks averaged, mean of 2 arrays, mostly near background
Reference: not given
Direction: higher = stronger binding
Target sequence (chain): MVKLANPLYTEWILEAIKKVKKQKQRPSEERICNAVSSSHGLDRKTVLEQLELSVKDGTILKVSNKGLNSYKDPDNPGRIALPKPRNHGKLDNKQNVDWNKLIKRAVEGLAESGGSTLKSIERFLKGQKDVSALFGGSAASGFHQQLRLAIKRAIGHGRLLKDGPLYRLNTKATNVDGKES
With `CCAAGGTC` the E-score was -0.176.
`ACAGGTGG` has an E-score of -0.0956.
`ACCGTACG` has an E-score of 0.284.
`GCGACACC` has an E-score of 0.153.
`GCGGCACA` gave an E-score of 0.21.
`ATTCCCGC` has an E-score of 0.274.
`CCCCATCA` has an E-score of -0.252.
`TGAAAGCA` has an E-score of -0.191.
The E-score of `AGTGCCAA` is reported as -0.199.
`TACAATCA` has an E-score of -0.0927.
The E-score of `AATAGCAA` is reported as -0.143.
`CAGTCTGG` has an E-score of -0.132.
For `AGCCTCAT`, the E-score was -0.191.
With `AGGTAACT` the E-score was -0.217.
`CTTTCCAC` has an E-score of -0.04.
The E-score of `CCCTCATA` is reported as -0.151.
`ACTCAAAT` has an E-score of -0.131.
With `AATGTACG` the E-score was -0.0673.
For `GTGGGCCA`, the E-score was -0.0994.
`CCCCTTCG` gave an E-score of -0.134.
For `AAGTCGAG`, the E-score was -0.138.
`AAGAATGT` has an E-score of -0.136.
With `ATTGGCAC` the E-score was -0.304.
With `GACCCGGA` the E-score was 0.127.
The E-score of `AAAGAGTC` is reported as -0.0522.
